Published values collected from several papers.
A part holds a random share of what one study measured.

Set 1
Target: Sal-like protein 4, full length isoform A (SALL4, Homo sapiens, UniProt Q9UJQ4, residues 1-1053)
UniProt Q9UJQ4, sequence (whole entry, looked up): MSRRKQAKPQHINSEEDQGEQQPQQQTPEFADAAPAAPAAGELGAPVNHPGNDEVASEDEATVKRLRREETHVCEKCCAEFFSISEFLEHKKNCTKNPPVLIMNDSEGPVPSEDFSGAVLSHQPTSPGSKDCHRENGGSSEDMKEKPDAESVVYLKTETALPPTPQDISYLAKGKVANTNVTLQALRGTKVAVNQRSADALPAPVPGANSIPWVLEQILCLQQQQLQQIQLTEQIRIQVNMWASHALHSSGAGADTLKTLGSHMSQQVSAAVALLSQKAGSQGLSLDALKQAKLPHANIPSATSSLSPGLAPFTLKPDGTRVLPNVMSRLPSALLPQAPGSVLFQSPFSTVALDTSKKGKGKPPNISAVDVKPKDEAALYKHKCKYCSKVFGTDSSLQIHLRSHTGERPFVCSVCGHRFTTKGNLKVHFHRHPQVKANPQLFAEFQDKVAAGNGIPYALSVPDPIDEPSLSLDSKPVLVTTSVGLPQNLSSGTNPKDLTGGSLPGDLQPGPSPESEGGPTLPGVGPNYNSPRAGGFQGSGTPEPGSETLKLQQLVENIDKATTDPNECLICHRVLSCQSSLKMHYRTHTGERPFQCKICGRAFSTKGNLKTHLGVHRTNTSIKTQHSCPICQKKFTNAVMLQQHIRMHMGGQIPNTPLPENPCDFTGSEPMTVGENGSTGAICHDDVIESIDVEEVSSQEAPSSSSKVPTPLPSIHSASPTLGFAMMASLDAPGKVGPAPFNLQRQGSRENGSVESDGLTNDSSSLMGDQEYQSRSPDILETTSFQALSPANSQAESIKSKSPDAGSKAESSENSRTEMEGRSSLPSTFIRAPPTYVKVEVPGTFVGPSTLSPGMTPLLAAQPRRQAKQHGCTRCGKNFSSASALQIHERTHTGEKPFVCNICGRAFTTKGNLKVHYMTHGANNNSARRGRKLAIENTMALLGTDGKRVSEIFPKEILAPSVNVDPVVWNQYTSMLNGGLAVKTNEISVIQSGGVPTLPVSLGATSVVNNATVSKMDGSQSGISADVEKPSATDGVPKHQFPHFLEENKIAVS
Method: universal PBM
Molecule type: double-stranded DNA, one strand shown
Matrix: in vitro
Concentration: 600 nM
Notes: 8-mer, flanks averaged, mean of replicates
Reading: higher = stronger binding
For `GCTTGCCA`, the E-score was -0.0407.
`CTCTCATA` gave an E-score of 0.184.
With `CCGGTGAC` the E-score was -0.397.
`CGAACTCG` gave an E-score of -0.19.
The E-score of `ATCTGGGC` is reported as -0.192.

Set 2
Target: Max-binding protein MNT, bHLH-zipper, MAX partner unstated (MNT, Homo sapiens, UniProt Q99583, residues 220-300)
Method: protein-binding microarray
Molecule type: double-stranded DNA, one strand shown
Matrix: in vitro
Concentration: not given
Notes: k-mer, scored over probes, only values ≥0.25
Reading: higher = stronger binding
Residues (chain): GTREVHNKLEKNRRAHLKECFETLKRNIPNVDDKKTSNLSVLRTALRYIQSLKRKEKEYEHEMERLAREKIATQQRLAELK
With `ACATGCCG` the E-score was 0.358.
`ACGTGGAG` has an E-score of 0.445.
`CGCGTGGC` has an E-score of 0.465.
`GTGCGTGA` gave an E-score of 0.301.
With `ATCCACGC` the E-score was 0.366.
With `ATGCTAGC` the E-score was 0.263.
For `ATGCATGG`, the E-score was 0.333.

Set 3
Target: RNA binding protein fox-1 homolog 2, RRM domain, GST-SBP tag (RBFOX2, Homo sapiens, UniProt O43251-10, residues 100-194)
Method: RNA Bind-n-Seq
Molecule type: RNA
Matrix: in vitro
Concentration: 365 nM
Notes: natural RNA segment, single round, ends assumed
Reference: no-protein control
Reading: higher = stronger binding
Constant ends, left off below: GGGAGUUCUACAGUCCGACGAUC … UGGAAUUCUCGGGUGCCAA
Residues (chain): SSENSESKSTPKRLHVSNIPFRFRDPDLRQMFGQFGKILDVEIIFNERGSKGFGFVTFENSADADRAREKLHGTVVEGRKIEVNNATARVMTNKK
`UUUUGUACUAAAUCUUCAAAUAUUGUCUACUGUGUCAGGCAGAAACCGUUCUUAUCACGAGAAAGCACUUUGUUUCCAGGGUGACGAGUCCCGCGGAGCAUGCACACCUU` — result for “RBNS enrichment (R)”: 18.4.
Under “RBNS enrichment (R)”, `GUGAAUGGGAAUUAGCAAUGCACGCUUGCAGGCUCUUUUUCCAGGAACCAGGCUGUAACAUUGACCGGGGAACCUCUUCAUUCCCUGACAUACUAAAUUGGUCAAUUUUG` is recorded as 0.491.
`AAAGAUGCACUUUAGGAAACGAAAUAUUUCCUAAAUAACCAGGCUUCCACAUUGUACAGAAUGAGCAGUCAUGUAAUGAAUGGCUCUACUCAGAUUGACCAUAUGGGUUU` — result for “RBNS enrichment (R)”: 0.301.
Under “RBNS enrichment (R)”, `UUGUAAAAUAUUUUCAAAUGGUUUAUUACAGAAGAUCAGUUAUUAAAUAAUGUUCAUAUUUUCACUUAAAUGGUUCCCAUCCACUGUAUCAGCUUGGGGGUGAGGACUGG` is recorded as 0.429.
`UAUAUUACAAGGGCCCCAGUGUUAAUGUCUUAGAUUUUCAGUAUUUGAACUUAUUUUUUUAAAUUCUGUCAUUGAGAUAAGAAUAAUUCAGGUAGCAUCUGAAAUUUUAA` — result for “RBNS enrichment (R)”: 0.775.
Under “RBNS enrichment (R)”, `GUUUCUGAGUUUAGCCUAUAUAAACAUACUAUAUGUGCCCAGAGGUCUACAGUCACCCUUUUUUAUAAACAUAAAAAGACAUCUAGACUUAUUUUUACAAAUUAUUGGAA` is recorded as 0.443.
`UUUUCUUUACUGUAUGAAAACAGGAAAAUAAAAGAGAAAUUUAGAAAAUACAGCUCAUUACAAUAAAUUGUUGGAUUUCAUUUCCCCAGGUCUUCAGUGUUGAUGUAAAU` — result for “RBNS enrichment (R)”: 0.6.

Mixed results
`PhoQ, residues 284 288 289 292 302 303 GNNTDL` gave a fold induction of 6.08 (PhoP, residues 12 14 15 18 19 HLGGL (Escherichia coli, UniProt P23836); Sort-seq, item: YFP reporter; E. coli; PhoQ-PhoP variant library, with: 10 µM Mg2+; reference: high Mg2+ state, higher = stronger signaling).

For quick reference, copied from above (set 2):
With `ATCCACGC` the E-score was 0.366.
`GTGCGTGA` gave an E-score of 0.301.
